Results collected from several papers.
Lines come from different studies, so protocols differ. “And” joins repeats or separate records; there may be more than shown. Numbers after ± are the reported error.

| Structure (SMILES) | cell line | assay | conditions | how to read | measurement | result |
| --- | --- | --- | --- | --- | --- | --- |
| CC(C)C[C@H](NC(=O)[C@@H]1CCCN1C(=O)[C@H](CCCCN)NC(=O)[C@@H](N)CO)C(=O)N1CCC[C@H]1C(=O)N[C@@H](CCC(=O)O)C(=O)N[C@H](C(=O)N[C@H](C(=O)N[C@@H](CC(=O)O)C(=O)N[C@@H](CCC(=O)O)C(=O)N[C@@H](Cc1ccc(O)cc1)C(=O)NCC(=O)NCCOCCOCCOCCOCCOCCOCCOCCOCCOCCOCCOCCOCCOCCOCCOCCOCCOCCOCCOCCOCCOCCOCCOCCOCCC(=O)N[C@@H](CCCCNC(=O)CC[C@H](C(=O)O)N1CCN(CC(=O)O)CCN(CC(=O)O)CC1)C(=O)N1CCN(CCCN(C)c2ccc3nccc(C(=O)NCC(=O)N4CC(F)(F)C[C@H]4C#N)c3c2)CC1)[C@@H](C)O)C(C)C | HT-1080 expressing hFAP | binding, flow cytometry | 200 nM | – | positive cells | 95.7% |
| COc1cc(N2CCN(C(=O)CCOCCNC(=O)[C@@H]3CCCN3)CC2)ccc1Nc1ncc(Cl)c(Nc2ccccc2P(C)(C)=O)n1 | H3122 | flow cytometry | 500 nM, 24 h | – | S phase cells | 30.4% and 30.2% and 29.6% |
| C[C@@H]1Cc2c([nH]c3ccccc23)[C@@H](c2c(F)cc(/C=C/C(=O)O)cc2F)N1C12CC(C1)C2 | MCF7 | RNA-seq, refers to: GREB1 mRNA | 1 µM, 24 h, E2-induced gene | relative to: DMSO vehicle | log2 fold change | -3.42 |
| O=C(Nc1ccc(Cl)c(C(F)(F)F)c1)C1(C(=O)Nc2ccc3c(/C=C/c4ccccn4)n[nH]c3c2)CC1 | Ba/F3 TEL-VEGFR2 | cell growth, CCK-8 | – | – | GI50 | 1.5 µM |
| CCn1nc(Cl)c2c1-c1cnc(N)c(c1)O[C@H](C)c1cc(F)ccc1-c1nn(C)cc1C2 | KARPAS-299 (NPM1-ALK) | cell viability | – | – | Emax | 80.5% |
| O=C(N1CCCC1)n1cc(-c2ccc(-c3ccccc3)cc2)nn1 | mouse T cells | N-terminal labelling proteomics, refers to: SERF2 N-terminal peptides | 0.001 µM, 6 h | relative to: DMSO | SILAC ratio | 1.08 |
| Cc1cc(Cl)cc(-c2ccnc3cc(CN4C(=O)C5C(C4=O)C5(C)C)sc23)c1C[C@@H]1CNCCO1 (stereo partly drawn) | CHP-212 resistant | PI flow cytometry | 1 µM, 24 h | – | G2/M phase cells | 13% |
| CNC(NN=Cc1ccc([N+](=O)[O-])o1)=[S+][Au-][Cl] | CAKI-1 | annexin V/PI flow cytometry | 15 µM (IC50), 72 h | – | apoptotic cells increase | 30% |
| N#Cc1cccc(/C=C/C(=O)c2ccc(O)cc2)c1 | U-87 MG | refers to: HLA-DRA | concentration not given | relative to: untreated | mRNA level | 0.041 fold |
| CCCCCCc1cccc([C@H](O)C[C@H](CO)NC(=O)CCCCCCCCCCBr)c1 | HeLa | CERT activity, HPLC-MS/MS lipidomics, refers to: ceramide 24:1 | 1 µM, 24 h, not cell-number normalised | – | ceramide level | 18200 pmol/sample and 19100 pmol/sample and 22400 pmol/sample |
| CCN(C(=O)c1cc(F)ccc1Oc1nncnc1N1CCC2(C1)CN([C@H](CCCN(C)CCOC)C(C)C)C2)C(C)C | MDA-MB-436 | cell growth or viability | 7 days | – | GI50 | > 10 µM |
| CCN(CC)CC(=O)Nc1cccc(-n2cc(-c3ccc4ccc(-c5cn(-c6cccc(NC(=O)CN(CC)CC)c6)nn5)cc4c3)nn2)c1 | RCC4 | PCR angiogenesis array, refers to: TEK | 5 x IC50, 2 h, normoxia | relative to: untreated | fold regulation | 1.62 fold |
| CNS(=O)(=O)Nc1nccc(Cc2c(C)c3ccc(Oc4ncccc4F)cc3oc2=O)c1F | DMS-273 | cell viability | 7 days | – | IC50 | > 1 µM |
| CC(C)c1ccc(N(C)c2ccc3c(c2)OCC[C@H]3CNc2cnccc2C(=O)O)cc1 | SCC-25 | cell viability | 7 days | – | IC50 | ≥ 10 µM |
| Fc1ccc(Nc2nc(NC3CCCCC3)c3ccccc3n2)cc1F | transfected HEK293 cells | β-arrestin2 recruitment, negative allosteric modulator, BRET | 30 min pre-incubation, β1AR ECL1/2 chimera, with: isoproterenol 1 µM | – | pIC50 | 5.7 |
| CCOc1cncc(-c2ccc(NC(=O)C3(c4ccnc(NS(=O)(=O)C5CC5)n4)CCOCC3)nc2)n1 | TK-10 | cell proliferation, CellTiter-Glo | 72 h, renal cancer | – | IC50 | 5.14 µM |
| O=C(NCCSc1ccc2c(/C=C/c3ccccn3)n[nH]c2c1)Nc1ccc(F)c(F)c1 | Ba/F3 TEL-VEGFR3 | cell growth, CCK-8 | – | – | GI50 | 0.96 µM |
| COc1cccc(OC)c1-c1cc(C(=O)NC2(C(=O)O)C3CC4CC(C3)CC2C4)nn1-c1ccc(C(=O)NCCNC(=O)[C@H](CCCCNC(=O)[C@H](CC(C)C)NC(=O)C2OC2C(=O)O)NC(=O)CN2CCN(CC(=O)[O-])CCN(CC(=O)[O-])CCN(CC(=O)[O-])CC2)cc1C(C)C.[177Lu+3] (mixture of isomers) | HT-29 | – | concentration not given, 60 min | relative to: added activity | surface-bound fraction | 1.26 ± 0.17% |
| COC(=O)c1cc(NC2=NC(=O)C(=Cc3ccc(N(C)C)cc3)S2)ccc1OC(C)=O | MCF7 | refers to: RECQL mRNA | 0.81 µM (IC50), 24 h | relative to: DMSO | fold change | 0.212 |
| COc1ccc(NC(=O)c2ccc3[nH]c(-c4ccc(N(C)C)cc4)nc3c2)cn1 | HCEC-hTERT | IncuCyte | concentration not given, 12 h | – | dead cell to confluence ratio | 3.54 and 81 and 5.36 |
| COC(=O)[C@@]1(C(C)C)C=C(C(=O)Nc2cccc(C(=O)Nc3ccc(Nc4nccc(-c5cccnc5)n4)c(C)c3)c2)C(=O)CC1 | HEK293 AP1 reporter | AP1 reporter gene, inhibitor | 1 µM, 6 h, unit not given, with: PMA | relative to: PMA alone | reporter activity | 0.815 |
| CN1CCCNC(=O)c2cccc(c2)C(=O)NCCCN(C)CCCNc2cccc3c2C(=O)c2cccc(c2C3=O)NCCC1 | SAS | RNA-Seq, refers to: WTAP mRNA | 1 µM, 6 h | relative to: untreated cells | log2 fold change | -0.799 |
| Cn1ncc2cc(-c3cncc(Cl)c3N3CCC4(CCNC4=O)CC3)ccc21 | LS174T | gene expression, microarray, refers to: TNFAIP2 mRNA | concentration not given, 24 h | relative to: untreated cells | log2 fold change | 2.03 |
| O=C(Nc1nncs1)c1cccc([C@@H]2C[C@H]2NC2CCC2)c1 | SET-2 | cell growth, CellTiter-Glo | 10 µM, 7 d | relative to: vehicle | relative growth | 83% and 94.1% and 81.2% |
| CCC(=CCc1c(O)cc2c(c1O)C(=O)CC(c1ccc(O)cc1)O2)CC (stereo not drawn) | HeLa | flow cytometry | 24 µM, 48 h | relative to: DMSO | active caspase-3 level | 4 fold |
| Cc1ncsc1-c1ccc(C(C)NC(=O)C2CC(O)CN2C(=O)C(NC(=O)CCCCCCCCCCN2CCCC(Nc3ncc(Cl)c(Nc4ccccc4S(=O)(=O)C(C)C)n3)C2)C(C)(C)C)cc1 (stereo not drawn) | 22Rv1 | RNA-seq, refers to: ZNF818P mRNA | concentration not given | relative to: DMSO | log2 fold change | -2.23 |
| C=CC(=O)N1[C@H](c2ccc3c(c2)OCO3)c2[nH]c3ccccc3c2C[C@@H]1C(=O)NC | rat DRG neurons | – | 0.004572 µM, 48 h, with: vincristine 40 nM | – | neuron degeneration | 79.9% and 82.3% |
| O=C(Nc1nnc2c1c(-c1ccc(Cl)cc1)nc1sc(=Cc3ccco3)c(=O)n12)c1ccccc1 (mixture of isomers) | KM12 | SRB | 10 µM, NCI60 single-dose screen, colon cancer | relative to: untreated | cell growth | 39.9% |
| CN1CC[C@@H](COc2cnc(C#N)cc2-c2ccn3nc(NC(=O)C4CC4)cc3c2)C1 | human PBMC, CD4 memory T cells | single-cell RNA-seq | 1 µM, with: LPS | relative to: LPS alone | number of upregulated genes | 20 genes |
| COCCCCCNc1nc(NCCCCCCN(C)C)c2cc(NC(=O)/C=C/CN(C)C)ccc2n1 | MCF7 | CellTiter-Glo | 25 µM, 48 h, unit not given | relative to: DMSO-treated cells | viability | 0.983 and 1.02 and 0.971 |
